Assay results of several laboratories.
A part holds a random share of what one study measured. Changes are numbered by the printed parent chain.

Sample 1
Target: Prothrombin, mature alpha-thrombin (F2, Homo sapiens, UniProt P00734)
Technique: aptamer microarray, sandwich
Molecule type: DNA with 2'F-ANA
Matrix: in vitro
Concentration: 200 nM
Setting: whole 15-mer aptamer, many near background
Together with: Cy3 exosite-II aptamer, 400 nM
Direction: higher = stronger binding
Strand: GGTTGGTGTGGTTGG
Modification	mean fluorescence intensity
2'F-ANA at 6 7 8 9 10 12 13 14 15	116 a.u.
2'F-ANA at 1 2 3 5 6 9 14 15	50.8 a.u.
2'F-ANA at 2 3 4 8 9 10 11 12 13 15	238 a.u.
2'F-ANA at 1 3 4 6 8 9 11 14 15	63.2 a.u.
2'F-ANA at 1 3 8 10 12	122 a.u.
2'F-ANA at 1 2 4 5 6 9 11 15	50.4 a.u.
2'F-ANA at 3 5 6 11 15	106 a.u.
2'F-ANA at 1 2 5 6 8 9 12 13 14 15	49 a.u.
2'F-ANA at 6 10 13 15	136 a.u.
2'F-ANA at 2 4 8 10 11 14 15	59.3 a.u.
2'F-ANA at 1 2 4 5 6 7 8 10 12 14 15	47.7 a.u.
2'F-ANA at 2 3 5 6 7 8 11 12 15	177 a.u.
2'F-ANA at 1 4 5 6 7 10 11 12 13 14	45.3 a.u.
2'F-ANA at 1 2 3 4 5 9 11 12 13 14 15	57.1 a.u.
2'F-ANA at 1 2 3 5 11 13	70.3 a.u.
2'F-ANA at 1 3 6 7 8 9 11 13 14	156 a.u.
2'F-ANA at 1 5 8 9 11 12 15	92.3 a.u.
2'F-ANA at 1 3 7 13	304 a.u.
2'F-ANA at 1 2 3 4 5 10 12 14	132 a.u.
2'F-ANA at 2 7 8 10	168 a.u.
2'F-ANA at 1 2 3 5 6 8 9 11 15	52.4 a.u.
2'F-ANA at 1 2 6 7 8 10 12 13 14	51.9 a.u.
2'F-ANA at 3 6 7 8 9 15	983 a.u.
2'F-ANA at 2 3 4 5 6 7 8 9 11 12 13	105 a.u.

Sample 2
Target: Histone acetyltransferase KAT6A, winged helix 2, GST fusion (KAT6A, Homo sapiens, UniProt Q92794, residues 85-181)
Technique: protein binding microarray
Molecule type: double-stranded DNA, one strand shown
Matrix: in vitro
Concentration: not given
Setting: 8-mer, flanks averaged, mean of 2 arrays, mostly near background
Baseline: not given
Direction: higher = stronger binding
Target sequence (chain): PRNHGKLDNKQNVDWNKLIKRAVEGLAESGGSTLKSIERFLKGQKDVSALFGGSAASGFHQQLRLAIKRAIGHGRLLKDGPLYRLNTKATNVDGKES
Strand	E-score
CCACTTAC	-0.113
CGGAGCAC	0.0921
ACACCCCT	-0.122
CGCCGAGA	0.135
CACAAACC	-0.0384
CAGCAACA	0.18
GAGGGGGC	0.092
TCTGGACA	-0.0568
ACTGATCG	-0.113
CACAGGTA	-0.157
AGCAGCAG	0.161
GCCGACAC	-0.0965
CGGGAAAA	0.151
GGCGCCCC	0.213
CCGCGAGG	0.227
CAAGGGCA	-0.00241
CCGATCTC	0.0419
AGATTGAT	-0.0795
TGAGCACA	-0.0271
AGCAGTTC	0.0223
AACCGCGT	0.127
GTGGGCGA	0.145
AGGGAACG	-0.0593
GGACGCAA	0.0469
CTTATATC	-0.0899

Sample 3
Target: ABI1, truncated, D143A, DHFR fusion (Arabidopsis thaliana)
Technique: DHFR PCA, deep sequencing
Matrix: yeast
Setting: methotrexate growth selection, single substitutions
Together with: (+)-ABA 0 µM
Baseline: wild-type fitted maximum
Direction: higher = stronger binding
Starting sequence: PYL1, truncated, DHFR fusion (Arabidopsis thaliana); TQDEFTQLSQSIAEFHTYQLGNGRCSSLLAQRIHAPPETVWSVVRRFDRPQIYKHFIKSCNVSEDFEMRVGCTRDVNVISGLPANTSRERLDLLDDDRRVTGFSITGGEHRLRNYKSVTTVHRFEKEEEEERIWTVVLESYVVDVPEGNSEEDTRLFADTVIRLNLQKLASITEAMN
Substitution	relative binding score [%]
Y53N	-5.52
T160G	-5.03
R46L	0.344
E64R	22.5
L28S	2.92
R88D	2.33
T101W	-2.71
S9L	31.5
E128L	7
W41K	-1.94
D159S	-6.97
L112K	1.55
D153T	-0.898
Q19F	2.66
Y53G	-0.639
V142L	-5.68
E147P	31.2
N85Y	63.6
T135Q	-11.4
E89G	2.19

Sample 4
Target: CCNE1, cyclin fold, Cln2 fusion (human)
Technique: yeast growth competition, sequencing
Matrix: yeast
Setting: strong parent motif
Baseline: not given
Direction: higher = stronger binding
Starting sequence: BRCA2 docking peptide (human); CKKRRALDFLSRL
Substitution	normalised enrichment score
CKKRRALDFASRL [L10A]	1.4
CKKRKALDFLSRL [R5K]	0.707
CKKRKALDLLSRL [R5K F9L]	0.705
AKKRRALDFLSRL [C1A]	0.957
CKKRAAADFLSRL [R5A L7A]	0.774
CKKRRAADFLSRL [L7A]	1.37
CKKRRALDALSRL [F9A]	0.854
CKKRRALDFLSRA [L13A]	1.09
CAKRRALDFLSRL [K2A]	1.78

Sample 5
Target: Fragile X messenger ribonucleoprotein 1, C-terminal low-complexity region (Fmr1, Mus musculus, UniProt P35922)
Technique: RNA Bind-n-Seq
Molecule type: RNA
Matrix: in vitro
Concentration: 200 nM
Setting: whole 134-nt RNA, ends assumed
Together with: 150 mM KCl
Baseline: input library
Direction: higher = stronger binding
All sequences stand within: GGGAGUUCUACAGUCCGACGAUC … UGGAAUUCUCGGGUGUCAAGG
Strand	log2 enrichment
UUGUGUUCGUGAAUUGUAACUCCAGAAGCAAUGCCUGUACAAGCUCCACAAUGGACGGAUUUCCUCUCCUGCCCAAUUUGCACUCAGACU	0.928
CUCAAGUCCUGUGCUACACAUCGUAUGUACCGAAUCGGGAGGGAGGGGAGGGGAAAGUAUUAUGUUACGCCGUUCGGAUCUGCACUUCCA	1.19
AAGUCCUGUGCUACACAUCGUAUGUACCGAAUCGGGUUUUUGGGUGGGAAAAAGGGAAAGUAUUAUGUUACGCCGUUCGGAUCUGCACUU	0.643
UUUUCUUCUGGGGCAUUUAUCCGUGCUGAUCUUGGUGAAUGGGGCAUGAGUCUAACGAUCAGAGCCCCUAGUGUAGAUUACAGAAACACU	-0.0284
UCCUGUGCUACACAUCGUAUGUACCGAAUCGGGCCCCCGGGGCCCCCGGGCCCCCGGGGAAAGUAUUAUGUUACGCCGUUCGGAUCUGCA	-0.974
CAAGUCCUGUGCUACACAUCGUAUGUACCGAAUCGGGGAAAGGGAAAGGGGAAAGGAAAGUAUUAUGUUACGCCGUUCGGAUCUGCACUU	0.069
AAGUCCUGUGCUACACAUCGUAUGUACCGAAUCGGAAAAGGGAAAAGGGAAAAGGGAAAGUAUUAUGUUACGCCGUUCGGAUCUGCACUU	-0.529
GUCCUGUGCUACACAUCGUAUGUACCGAAUCGGGUUUUUGGGUUUUUUUGGGUUUGGGAAAGUAUUAUGUUACGCCGUUCGGAUCUGCAC	0.164
GCAGGAAGUAAAAACAAAUGGAAAUGCUUCGGAUAGUGGCAGGGGUGGGGGUUGCUAAGGAAAGGGUGGGGUGGGAGUGGGUAAAGAGUU	-0.247

Other studies, line by line
Molecule	target	assay	system	conditions	scale	measurement	value
PhoQ, residues 284 288 289 292 302 303 ALAMYF	PhoP, residues 12 14 15 18 19 NQFFI (Escherichia coli, UniProt P23836)	Sort-seq, refers to: YFP reporter	E. coli	PhoQ-PhoP variant library, together with: 10 µM Mg2+	baseline: high Mg2+ state, higher = stronger signaling	fold induction	12

Repeated from above (sample 2):
Strand	E-score
GCCGACAC	-0.0965
CGGGAAAA	0.151
GGCGCCCC	0.213
CCGCGAGG	0.227
CAAGGGCA	-0.00241
CCGATCTC	0.0419
AGATTGAT	-0.0795
TGAGCACA	-0.0271
AGCAGTTC	0.0223
